Results from different studies.
Lines come from different studies, so protocols differ. ± gives the spread as reported. ≈ marks a conversion by molar mass, not a printed value.
HCRTR1: Orexin/Hypocretin receptor type 1 (HCRTR1, Homo sapiens, UniProt O43613)
UniProt O43613, sequence (whole entry, looked up): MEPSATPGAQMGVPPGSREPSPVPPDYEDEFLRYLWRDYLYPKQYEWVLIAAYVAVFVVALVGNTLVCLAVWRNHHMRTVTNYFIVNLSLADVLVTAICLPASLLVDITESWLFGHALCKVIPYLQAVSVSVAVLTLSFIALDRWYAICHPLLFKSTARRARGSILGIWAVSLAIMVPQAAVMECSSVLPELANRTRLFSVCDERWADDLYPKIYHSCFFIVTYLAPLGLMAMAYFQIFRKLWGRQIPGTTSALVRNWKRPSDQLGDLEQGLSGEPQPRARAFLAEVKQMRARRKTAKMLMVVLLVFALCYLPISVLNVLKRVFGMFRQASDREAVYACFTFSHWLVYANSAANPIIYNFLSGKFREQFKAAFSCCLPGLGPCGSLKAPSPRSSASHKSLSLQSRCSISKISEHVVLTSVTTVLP
UniProt O75469, sequence (whole entry, looked up): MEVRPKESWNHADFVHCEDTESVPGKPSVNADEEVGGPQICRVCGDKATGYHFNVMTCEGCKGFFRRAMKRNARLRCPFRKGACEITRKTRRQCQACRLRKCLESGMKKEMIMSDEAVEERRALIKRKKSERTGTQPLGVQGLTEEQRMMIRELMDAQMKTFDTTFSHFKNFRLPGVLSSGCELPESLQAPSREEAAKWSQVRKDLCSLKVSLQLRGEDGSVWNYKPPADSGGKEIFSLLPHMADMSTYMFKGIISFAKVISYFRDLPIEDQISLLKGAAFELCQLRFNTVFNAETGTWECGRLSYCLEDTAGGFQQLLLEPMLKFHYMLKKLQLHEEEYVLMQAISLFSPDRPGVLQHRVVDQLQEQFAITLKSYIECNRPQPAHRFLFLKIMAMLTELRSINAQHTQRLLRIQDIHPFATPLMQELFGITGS

Molecule | target or system | assay | test system | conditions | scale | quantity | value
COCCc1ccc(OCC(O)CNC(C)C)cc1 (stereo not drawn) | – | – | rats, adrenaline arrhythmia, plasma | intragastric, 2.57 g/kg daily, 14 days | – | cAMP level | 7.61 ± 0.28 nmol/L
CC(C)C[C@H](NC(=O)[C@H](CC(C)C)NC(=O)[C@H](CCCNC(=N)N)NC(=O)[C@H](CO)NC(=O)[C@H](CC(C)C)NC(=O)[C@H](C)NC(=O)[C@H](CCCNC(=N)N)NC(=O)[C@H](Cc1ccccc1)NC(=O)[C@H](CC(C)C)NC(=O)[C@H](C)NC(=O)CNC(=O)[C@H](CC(C)C)NC(=O)[C@@H](N)Cc1ccccc1)C(=O)O | – | – | DPPC/cholesterol/DPPS monolayer | 10 µM | – | surface tension change | 13 mN/m
Oc1cc2c(cc1O)C(c1ccccc1)CNCC2 (stereo not drawn) | – | five-choice serial reaction time task | male Lister hooded rat, low performers | intraperitoneal, 3 mg/kg | – | accuracy | 69.4 ± 0.91%
ANKHYF | – | inhibitor, light transmission aggregometry | peptide, human platelet-rich plasma | 500 µg/mL, together with: ADP 4 µM | – | platelet aggregation | inactive
CCCC[C@H](NC(C)=O)C(=O)N[C@H]1CCC(=O)NC[C@@H](C(=O)N[C@@H](Cc2c[nH]c3ccccc23)C(N)=O)NC(=O)[C@H](CCCNC(=N)N)NC(=O)[C@@H](Cc2ccccc2)NC(=O)[C@H](Cc2c[nH]cn2)NC1=O | – | – | CD Sprague Dawley rat, female, plasma | subcutaneous, 5.0 mg/kg daily, day 1 | – | half-life | 5.91 h
CN(CCOc1ccc(CC2SC(=O)NC2=O)cc1)c1ccccn1 (stereo not drawn) | – | – | human liver microsomes | together with: 2.5 µM sulfaphenazole | – | K' | 205 µM
CC(=O)Nc1cccc(OCc2nnc(SCc3ccccc3F)o2)c1 | – | forced swimming test | mice | 40 mg/kg, 0.5 h | reference: control | immobility duration decrease | 45.6%
Cc1noc(C)c1-c1cnc2c(-c3ccc(C(=O)O)cc3)cn([C@@H](C)c3ccccn3)c2c1 | – | – | mouse, Eµ-TCL1 adoptive transfer | oral, 20 mg/kg daily, until 150 days | – | median overall survival | 93 days
Cc1ccc(NC(=O)c2ccc(CN3CCN(C)CC3)cc2)cc1Nc1nccc(-c2cccnc2)n1 | – | – | rat, SU5416/hypoxia PAH model | oral, 15.0 mg/kg once daily, day 49 | – | mPAP | 37.4 ± 3.9 mmHg
C=C1C2CCC(C2)C1(C)C (stereo not drawn) | – | two-choice feeding trial | Brachylagus idahoensis | 1% dry weight in diet, 72 h, together with: monoterpene mixture 1% dry weight | – | proportion of food consumed | 52 ± 0.11%
DWFKAFYDKVAEKFKEAF (N-acetyl, C-amide) | – | monocyte chemotactic activity | peptide, human aortic endothelial cells, female apoE-null mice | retro-orbital, 100 µg 3 times weekly for 15 days | reference: human LDL | plasma inflammatory index | decreased
AGEDPHGYFLPGQFA | – | – | peptide, C57BL/6J mouse, zymosan peritonitis | ip, 0.32 ng/kg, 4 h after zymosan, dosed 1 h before zymosan | – | peritoneal neutrophils | 780000 cells
CC(=O)Nc1cccc(OCc2nnc(SCc3ccc(C)cc3)o2)c1 | – | forced swimming test | mice | 40 mg/kg, 0.5 h | reference: control | immobility duration decrease | 39.2%
O=C(/C=C/C=C/c1ccc2c(c1)OCO2)N1CCCCC1 | Nuclear receptor subfamily 1 group I member 2 (NR1I2, Homo sapiens, UniProt O75469) | MDR1 promoter reporter, activator, luciferase reporter | HepG2, no PXR transfection | 24 h, 1% charcoal-stripped FBS | – | EC50 | 980 nM
CC[C@H](C)[C@H](NC(=O)[C@H](C)NC(=O)[C@H](CCCNC(=N)N)NC(=O)[C@H](Cc1c[nH]c2ccccc12)NC(=O)[C@H](CCC(N)=O)NC(=O)[C@@H](N)C(C)C)C(=O)N[C@@H](CCCNC(=N)N)C(=O)N[C@H](C(=O)N[C@@H](CCCNC(=N)N)C(=O)N[C@H](C(=O)N[C@H](C(=O)N[C@@H](CCCNC(=N)N)C(N)=O)[C@@H](C)CC)C(C)C)C(C)C | – | carboxyfluorescein release | EYPG vesicles | 10 µg/mL, 250 s, pH 7.4, 25 °C | reference: Triton X-100 | leakage | 32%
CCCCCCCCCCCCCCCC(=O)NCCCC[C@H](NC(=O)[C@H](CCC(=O)O)NC(=O)[C@H](CCC(=O)O)NC(=O)[C@H](Cc1ccc(O)cc1)NC(=O)[C@H](CCC(=O)O)NC(=O)CCCCCNC(=S)Nc1ccc2c(c1)C(=O)OC21c2ccc(O)cc2Oc2cc(O)ccc21)C(=O)N[C@@H](Cc1ccc(O)cc1)C(=O)N[C@@H](CCC(=O)O)C(=O)NCC(=O)NCC(=O)NCC(=O)NCC(=O)N[C@@H](CO)C(=O)NCC(=O)NCC(=O)NCC(=O)NCC(=O)N[C@@H](CO)C(=O)N[C@@H](Cc1ccccc1)C(=O)N[C@@H](CC(N)=O)C(=O)N1CCC[C@H]1C(=O)N[C@@H](CCCNC(=N)N)C(=O)N[C@@H](Cc1c[nH]cn1)C(=O)NC(C)(C)C(=O)N[C@@H](CCC(=O)O)C(=O)NCC(=O)N[C@H](C(=O)N[C@@H](Cc1ccccc1)C(=O)N[C@H](C(=O)N[C@@H](CO)C(=O)N[C@@H](CC(=O)O)C(=O)N[C@H](C(=O)N[C@@H](CO)C(=O)N[C@@H](CO)C(=O)N[C@@H](Cc1ccc(O)cc1)C(=O)N[C@@H](CC(C)C)C(=O)N[C@@H](CCC(=O)O)C(=O)NCC(=O)N[C@@H](CCC(N)=O)C(=O)N[C@@H](C)C(=O)N[C@@H](C)C(=O)N[C@@H](CCCCN)C(=O)N[C@@H](CCC(=O)O)C(=O)N[C@@H](Cc1ccccc1)C(=O)N[C@H](C(=O)N[C@@H](C)C(=O)N[C@@H](Cc1c[nH]c2ccccc12)C(=O)N[C@@H](CC(C)C)C(=O)N[C@H](C(=O)N[C@@H](CCCCN)C(=O)NCC(=O)N[C@@H](CCCNC(=N)N)C(=O)NCC(=O)O)C(C)C)[C@@H](C)CC)C(C)C)[C@@H](C)O)[C@@H](C)O | – | – | db/db mouse | subcutaneous, 10 nmol/kg, 0.5 h before glucose, AUC 0-120 min, together with: oral glucose 2.0 g/kg | reference: saline | glucose reduction | 25.9%
CCOc1ccc(-c2nc(-c3cccc4c3CCC4NCCO)no2)cc1OCC (stereo not drawn) | – | blood CD4+ cell count reduction, flow cytometry | mouse | intraperitoneal, 5 h | – | ED50 | 0.5 mg/kg
O=C(NC[C@H]1CN(c2ccc(N3CCOCC3=O)cc2)C(=O)O1)c1ccc(Cl)s1 | – | functional antithrombin | human, plasma | dose not given, drug plasma level above 100 ng/mL | reference: pretreatment samples | antithrombin activity increase | 24%

Molecule | target or system | assay | test system | conditions | scale | quantity | value
CCOC(=O)c1c(N)csc1-c1cn(-c2ccccc2)nc1-c1ccc(C)cc1 | Acinetobacter baumannii | broth microdilution | clinical urinary isolate | compound gamma-irradiated 10 kGy | – | MIC | 0.123 ± 0.1 µg/mL (≈ 0.305 µM)
insulin glulisine | – | – | obese type 2 diabetes patients | subcutaneous, 0.2 U/kg, before standard meal | – | maximum glucose excursion | 33 mg/dL
CCOC(=O)c1sc(N=C2c3ccccc3-c3nc4cc(F)ccc4nc32)nc1C | – | – | mouse, STZ-induced diabetes | oral, 25 mg/kg, day 3 | – | blood glucose | 332 ± 18.4 mg/dL
C[C@]12C=CC(=O)C=C1CC[C@H]1[C@@H]3C[C@@H](O)[C@](O)(C(=O)CO)[C@@]3(C)C[C@H](O)[C@@]12F | – | histology | rat, MIA-induced osteoarthritis, knee MFC and LFC | intra-articular, 0.06 mg on 5, 12, 19 days after MIA, day 26 | reference: vehicle | bone resorption reduction | 49 to 50%
CC(C)C[C@H](NC(=O)[C@H](CO)NC(=O)[C@H](CCCNC(=N)N)NC(=O)[C@H](CC(=O)O)NC(=O)[C@H](CCC(=O)O)NC(=O)[C@H](C)NC(=O)[C@@H]1CCCN1C(=O)[C@H](C)NC(=O)[C@H](CCC(=O)O)NC(=O)[C@@H]1CCCN1C(=O)[C@@H]1CCCN1)C(N)=O | – | HPLC-EC | rat F344, unilateral 6-OHDA lesion, ipsilateral striatum | intranasal, 300 µg daily, 5 weeks post lesion | – | dopamine level | 201 ± 171 ng/g
COc1cc2c(cc1OC)C(Cc1ccc(OCc3cccnc3)c(OC)c1)N(CC(=O)NCc1ccccc1)CC2 (stereo not drawn) | HCRTR1 | calcium signal, antagonist, fluorescence | – | – | – | Kb | 250 nM
CC(=O)Nc1cccc(OCc2nnc(SCc3cccc(F)c3)o2)c1 | – | forced swimming test | mice | 40 mg/kg, 0.5 h | reference: control | immobility duration decrease | 42.2%
O=C(NC[C@H]1CN(c2ccc(N3CCOCC3=O)cc2)C(=O)O1)c1ccc(Cl)s1 | – | – | human, moderate renal impairment, plasma | oral, 10 mg, together with: erythromycin at steady state | reference: normal renal function, compound alone | prothrombin time AUC(0-48h) increase | ~70%
Cc1nc2cccc(OCC(C)(C)C(=O)NC(C)C)c2c(N)c1C(=O)O | – | – | female Sprague-Dawley rat, plasma | oral, 10 mg/kg, single dose | – | half-life | 1.17 h
COc1ccc2c(c1)c(CC(=O)O)c(C)n2C(=O)c1ccc(Cl)cc1 | – | multiplex bead immunoassay, refers to: MIP1-α | CD-1 mice, serum | ip, 20 mg/kg, three-injection regimen, together with: LPS 3 mg/kg | – | cytokine level | 112 ± 29.2 pg/mL
CCOc1ccc(Cc2cc([C@@H]3O[C@H](SC)[C@@H](O)[C@H](O)[C@H]3O)ccc2Cl)cc1 | – | – | healthy Chinese subjects | oral, 400 mg once daily, 24 h, day 8 | – | urinary glucose excretion | 47.5 g
Cc1cc(C)c(/C=C2\C(=O)Nc3ccccc32)[nH]1 | – | MRI | human | dose not given, 9.5 months | – | tumour volume | 80 cm³
Nc1ncnc2c1ncn2CCOCP(=O)(O)O | herpes simplex virus 2 | cytopathic effect | HEL, clinical isolate NA | – | – | EC50 | 3.4 ± 1.2 µg/mL
CS/C(S)=N/CCCC[S+](C)[O-] (racemic) | – | RT-PCR, refers to: Abcb1b | rat, liver | oral gavage, 200 mg/kg, 96 h, dosed for four days | reference: vehicle | mRNA fold change | 2.69
COc1ccc(-c2ccc3c(N4CCOC[C@@H]4C)nc(N4CCOC[C@@H]4C)nc3n2)cc1CO | – | – | B6 mouse, BALB/c heart allograft | intraperitoneal, 10 mg/kg twice daily, together with: rapamycin 2 mg/kg then 1 mg/kg/day | – | median graft survival | 28 days
CC[C@H](C)[C@@H]1NC(=O)[C@H](CCCNC(=N)N)NC(=O)[C@H](CC(=O)O)NC(=O)[C@H]([C@@H](C)CC)NC(=O)[C@H](CCCCN)NC(=O)[C@H](Cc2c[nH]cn2)NC(=O)CNC(=O)[C@H](Cc2ccccc2)NC(=O)[C@@H](NC(=O)[C@H](CO)NC(=O)[C@H](CO)NC(=O)[C@@H](NC(=O)[C@H](Cc2c[nH]cn2)NC(=O)[C@@H](NC(=O)[C@@H](NC(=O)[C@H](CCCCN)NC(=O)[C@H](CO)NC(=O)[C@@H](N)CC(N)=O)C(C)C)[C@@H](C)O)[C@@H](C)CC)CSSC[C@@H](C(=O)N[C@@H](CC(N)=O)C(=O)N[C@@H](C)C(=O)N[C@@H](CC(C)C)C(=O)N[C@@H](CCCCN)C(=O)O)NC(=O)CNC(=O)[C@H](CC(C)C)NC(=O)[C@H](CCCNC(=N)N)NC(=O)[C@H](CO)NC(=O)[C@H](C(C)C)NC(=O)[C@H](CO)NC(=O)CNC1=O | – | – | C57BL/6J mouse, normotensive, anaesthetised | intravenous bolus, 1.67 nmol/g body weight | – | time to maximal vasorelaxation | 3.3 ± 1.2 min
COc1cc2c(cc1OC)C(Cc1cccc(N)c1)N(CC(=O)NCc1ccccc1)CC2 (stereo not drawn) | HCRTR1 | calcium signal, antagonist, fluorescence | – | – | – | Kb | 1310 nM
CC(C)[C@H](NC(=O)[C@@H]1CCCN1C(=O)[C@H](CCCNC(=N)N)NC(=O)[C@H](CS)NC(=O)[C@H](Cc1c[nH]c2ccccc12)NC(=O)[C@H](CCCNC(=N)N)NC(=O)[C@@H](Cc1ccccc1)NC(=O)[C@H](Cc1c[nH]cn1)NC(=O)[C@H](CCC(=O)O)NC(=O)[C@H](CS)NC(=O)[C@H](CS)NC(=O)[C@H](CCCCN)NC(=O)[C@@H]1CC(=O)N[C@@H](CCCNC(=N)N)C(=O)N[C@@H](C)C(=O)N[C@@H](CC(=O)O)C(=O)N[C@H](Cc2ccc(O)cc2)C(=O)N1)C(N)=O [technetium-99m labelled] | – | – | C57 mice, liver | intravenous, 0.037 MBq, 4 h | – | tissue uptake | 1.8 ± 0.51 %ID/g
